Published values from different studies.
Each line is one published result; not all experiments were run side by side. Numbers after ± are the reported error.
LiaR D50E/D191N: LiaR D50E/D191N (Enterococcus faecalis, UniProt R3G073)
UniProt Q6QGH9, sequence (whole entry, looked up): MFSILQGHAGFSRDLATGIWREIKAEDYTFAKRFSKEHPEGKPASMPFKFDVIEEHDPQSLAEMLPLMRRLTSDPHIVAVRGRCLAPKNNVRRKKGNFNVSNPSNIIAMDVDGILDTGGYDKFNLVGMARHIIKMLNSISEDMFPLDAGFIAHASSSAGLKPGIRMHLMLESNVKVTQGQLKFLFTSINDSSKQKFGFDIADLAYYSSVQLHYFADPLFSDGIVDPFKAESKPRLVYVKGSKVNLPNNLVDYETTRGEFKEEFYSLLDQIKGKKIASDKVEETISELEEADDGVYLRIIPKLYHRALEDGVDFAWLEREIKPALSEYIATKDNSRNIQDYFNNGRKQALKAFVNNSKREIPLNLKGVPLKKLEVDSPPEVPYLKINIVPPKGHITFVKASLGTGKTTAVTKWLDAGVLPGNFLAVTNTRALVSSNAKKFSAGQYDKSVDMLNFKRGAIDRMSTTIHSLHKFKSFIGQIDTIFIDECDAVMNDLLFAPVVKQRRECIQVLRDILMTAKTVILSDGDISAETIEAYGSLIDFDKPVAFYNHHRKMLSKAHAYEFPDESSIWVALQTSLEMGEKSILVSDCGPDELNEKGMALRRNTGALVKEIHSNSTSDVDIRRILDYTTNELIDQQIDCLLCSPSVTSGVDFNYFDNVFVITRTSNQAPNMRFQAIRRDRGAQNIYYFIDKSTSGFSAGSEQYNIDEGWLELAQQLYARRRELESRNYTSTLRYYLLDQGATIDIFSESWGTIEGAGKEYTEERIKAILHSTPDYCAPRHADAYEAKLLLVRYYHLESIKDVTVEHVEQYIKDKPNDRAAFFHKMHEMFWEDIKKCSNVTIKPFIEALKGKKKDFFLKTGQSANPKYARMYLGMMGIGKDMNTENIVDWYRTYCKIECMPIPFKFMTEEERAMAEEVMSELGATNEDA

AGAAATCGTTCTTAAGTCCTATGACA (dsDNA)  Kd (LiaR D50E (Enterococcus faecalis, UniProt R3G073); MST; double-stranded DNA, one strand shown): 4.13 ± 0.48 µM
RNA polymerase II CTD 19-residue peptide, phosphoserine S2 (Homo sapiens) (sequence not shown)  Kd (RPRD1A CID (Homo sapiens); ITC; read off a plot): 8.4 µM
ACTAGTCCTTACTAATGAGAAGAAATCGTTCTTAAGTCCTATGACA (dsDNA)  Kd (LiaR D191N (Enterococcus faecalis, UniProt R3G073); MST; double-stranded DNA, one strand shown): 0.63 ± 0.04 µM
TATTTAGTTAGATATCTAACTAAATA (dsDNA (Staphylococcus aureus); blunt, self-complementary)  Kd (MarR family regulatory protein full length assumed A103V (Staphylococcus aureus, UniProt Q5Y812); ITC; double-stranded DNA, one strand shown): 1 µM
CATTTAGGGCTAAAGTCCTATGGTAACCTGA (dsDNA)  Kd (LiaR D50E/D191N; MST; double-stranded DNA, one strand shown): 2.8 ± 0.3 µM
DNA 1 TTTTTTTTTTTTTTTCGAATTCGAGCTCGGTACCC / DNA 2 GGGTACCGAGCTCGAATTCG (dsDNA; 20 bp, 5' dT15 overhang)  binding (D2 helicase 1-928 (Escherichia phage T5, UniProt Q6QGH9); EMSA; 0.1 nM, without ATP/Mg2+): no binding
ACTAGTCCTTACTAATGAGAAGAAAT (dsDNA)  Kd (LiaR D50E/D191N; MST; double-stranded DNA, one strand shown): 16.1 ± 2.1 µM
RNA polymerase II CTD 19-residue peptide (Homo sapiens) (sequence not shown)  Kd (RPRD2 CID, to residue 161 (Homo sapiens, UniProt Q5VT52); ITC; read off a plot): 355 µM

Repeated from above:
ACTAGTCCTTACTAATGAGAAGAAATCGTTCTTAAGTCCTATGACA (dsDNA)  Kd (LiaR D191N (Enterococcus faecalis, UniProt R3G073); MST; double-stranded DNA, one strand shown): 0.63 ± 0.04 µM
